Results gathered from unrelated publications.
Lines come from different studies, so protocols differ. Numbers after ± are the reported error.

`Cn1c(=O)oc2ccc(-c3ccc(CC(C#N)NC(=O)C4CNCCCO4)c(F)c3)cc21` (centres unmarked) — result for “subjects with TEAE”: 16.7% (refers to: skin exfoliation; human; 60 mg single dose, fasted).
The SUV of `CN1C(=O)c2cccc3c2C1=Cc1ccccc1N3Cc1cccc(NC2CCN([11CH3])CC2)c1` is reported as 0.23 (PET/CT; C57BL/6 mouse male, heart; intravenous, 5 min).
`N=C(N)NCCC[C@@H]1NC(=O)[C@H](Cc2c[nH]c3ccccc23)NC(=O)[C@@H](CC2CCCCC2)NC(=O)[C@@H]2CCCN2C(=O)[C@@H](NC(=O)CCc2ccccc2)CCCNC1=O`: “elimination rate constant” 0.000347 s⁻¹ (C57BL/6J mice, spinal cord; subcutaneous, 1 mg/kg, two-compartment model).
`O=C(O)[C@@H]1C[C@@H](O)CN1C(=O)[C@@H]1CCCN1` gave a pKa2 of 5.23 (potentiometric titration; water; 40 °C, 0.15 mol/dm3 NaCl).
`COc1ccc2cc(-c3ccc(-c4ccc(C)cn4)nc3)oc2c1` — result for “fluorescence quantum yield”: 0.7 (CHCl3; together with: quinine bisulfate reference).
Under “percent of dose in urine”, `CN1CCC[C@]1(C)/C=C/S(=O)(=O)NC(=O)Nc1c2c(cc3c1CCC3)CCC2` is recorded as 69.1% (human, urine; oral, 250 mg single dose).
`CN1C(=O)[C@@H](Cc2ccc(O)c(I)c2)NC(=O)CNC(=O)[C@H](Cc2ccc3ccccc3c2)NC(=O)[C@H](CCCNC(=N)N)NC(=O)[C@H]1CCCNC(=O)c1ccc(CNC(=O)CN2CCN(CC(=O)O)CCN(CC(=O)O)CCN(CC(=O)O)CC2)cc1` [lutetium-177 labelled]: “absorbed organ dose” 0.81 mGy/MBq (SPECT/CT and planar imaging; human, spleen).
`NCCCC(=O)OCC(=O)c1ccc(O)c(C(F)(F)F)c1.O=C(O)C(F)(F)F` has a quantum yield of 0.14 (photolysis, refers to: rearranged acid appearance; unbuffered water).
`C=C(C)C(=O)NCCCCCC(=O)N[C@@H](Cc1ccccc1)C(=O)N[C@@H](CCCCN)C(=O)N[C@@H](Cc1ccccc1)C(=O)N[C@@H](CC(C)C)C(=O)NCCCCCC(=O)N[C@H](CCCCN)C(=O)N[C@H](CCCCN)C(=O)N[C@H](CCCCN)C(=O)N[C@H](CCCCN)C(=O)N[C@H](CCCCN)C(=O)N[C@H](CCCCN)C(=O)N[C@H](CCCCN)C(=O)N[C@H](CCCCN)C(=O)N[C@H](CCCCN)C(=O)N[C@H](CCCCN)C(N)=O` — result for “time intact peptide detected”: no less than 4 h (MALDI-TOF MS; mouse serum; 37 °C).
For `COC(=O)c1ccc2c(c1)NC(=O)/C2=C(\Nc1ccc2c(c1)CCN2C(=O)CN1CCOCC1)c1ccccc1`, the microsomal CLint was 440 µL/min/mg (metabolic stability; cynomolgus monkey, liver microsomes; 10 µM, pH 7.4).
`CCCC[C@H](NC(=O)CNC(=O)CNC(=O)CN1CCN(CC(=O)O)CCN(CC(=O)O)CC1)C(=O)N[C@H]1CC(=O)NCCCC[C@@H](C(N)=O)NC(=O)[C@H](Cc2c[nH]c3ccccc23)NC(=O)[C@H](CCCNC(=N)N)NC(=O)[C@@H](Cc2ccccc2)NC(=O)[C@H](Cc2c[nH]cn2)NC1=O` [gallium-67 labelled] — result for “tumour to skin uptake ratio”: 8.27 (C57 mice, B16/F1 melanoma; 24 h).
For `CC(C)[C@H](NC(=O)CNC(=O)[C@H](CCC(N)=O)NC(=O)[C@H](C)N)C(=O)O`, the CL was 900 mL/min/kg (human, plasma; intravenous infusion, 15 mg/kg/h, 2 h infusion, geometric mean).
The tumour-to-tissue ratio of `CC(C)[C@H](NC(=O)[C@@H]1CCCN1C(=O)[C@H](CCCNC(=N)N)NC(=O)[C@H](CS)NC(=O)[C@H](Cc1c[nH]c2ccccc12)NC(=O)[C@H](CCCNC(=N)N)NC(=O)[C@@H](Cc1ccccc1)NC(=O)[C@H](Cc1c[nH]cn1)NC(=O)[C@H](CCC(=O)O)NC(=O)[C@H](CS)NC(=O)[C@H](CS)NC(=O)COCCOCCNC(=O)[C@@H]1CC(=O)N[C@@H](CCCNC(=N)N)C(=O)NCC(=O)N[C@@H](CC(=O)O)C(=O)N[C@H](Cc2ccc(O)cc2)C(=O)N1)C(N)=O` [technetium-99m labelled] is reported as 12.2 ± 7.85 (nude mouse, M21 melanoma xenograft, tumour over muscle; intravenous, 0.037 MBq, 2 h; relative to: tumour over muscle).
`CC(C)(O)c1ncc([S@](N)(=O)=NC(=O)Nc2c3c(cc4c2CCC4)CCC3)s1` has an AUC(0-tau) of 61200 ng·h/mL (healthy human, fed; oral, 50 mg twice daily, day 14, tablet formulation, geometric mean).
`[11CH3]c1ccc2nc(C3CCC3)n(-c3ccc4[nH]ncc4c3)c2n1` has an effective dose of 4 µSv/MBq (extrapolated from mouse biodistribution; human male).
With `CCCC(CCC)NC(=O)c1ccc(O)c(O)c1` the Cmax ratio was 14.3 (male Sprague-Dawley rats, plasma; oral, 200 mg/kg of parent drug; relative to: 200 over 20 mg/kg dose).
For `NC12CNCCNCC(NCc3ccc(CNC(=O)CCCC(=O)NCc4ccc(-c5nncnn5)cc4)cc3)(CNCCNC1)CNCCNC2.[64Cu+2]`, the absorbed dose was 0.0379 rad/mCi (OLINDA dosimetry; heart wall; pretargeting, 48 h interval).
For `Oc1ccc2ccccc2c1/N=N/c1ccc(/N=N/c2ccccc2)cc1`, the measured concentration was 5.16 µg/L (extracted rat blood QC samples; 5.0 µg/L, 2 h, room temperature, short-term stability).
`COCCOCCOCCOCCOCCOCCOCCOCCOCCOCCOCCOCCNC(=O)CCC1(Cc2ccccc2)c2ccccc2-c2ccc(-c3sc(-c4c5c(c(-c6sc(-c7ccc8c(c7)C(CCC(=O)NCCOCCOCCOCCOCCOCCOCCOCCOCCOCCOCCOCCOC)(Cc7ccccc7)c7ccccc7-8)c7c6OCCO7)c6nsnc46)N=S=N5)c4c3OCCO4)cc21` (centres unmarked) gave a particle size of 220 ± 80 nm (DLS and TEM; aqueous solution).
`CC12CC(c3ccc(S(C)(=O)=O)cc3)C3=C4CCC(=O)C=C4CCC3C1CCC2(O)C(F)(F)C(F)(F)F` (centres unmarked) gave a terminal half-life of 42.4 h (human, plasma; intravenous, 15.7 µg, [14C] microtracer, geometric mean).
For `COCCOCCOCCOCCOCCOCCOCCOCCC(=O)NCCCc1cc2cc3nc(cc4[nH]c(cc5nc(c(OC)c1[nH]2)C(=O)C5(C)C)cc4CCc1ccc(C(=O)O)cc1)CC3(C)C`, “B band absorption maximum” read 398 nm (DMF; room temperature).
`CC(C)[C@H](NC(=O)[C@@H]1CCCN1C(=O)[C@H](CCCNC(=N)N)NC(=O)[C@H](CS)NC(=O)[C@H](Cc1c[nH]c2ccccc12)NC(=O)[C@H](CCCNC(=N)N)NC(=O)[C@@H](Cc1ccccc1)NC(=O)[C@H](Cc1c[nH]cn1)NC(=O)[C@H](CCC(=O)O)NC(=O)[C@H](CS)NC(=O)[C@H](CS)NC(=O)CNC(=O)[C@@H]1CC(=O)N[C@@H](CCCNC(=N)N)C(=O)NCC(=O)N[C@@H](CC(=O)O)C(=O)N[C@H](Cc2ccc(O)cc2)C(=O)N1)C(N)=O` [technetium-99m labelled] — result for “tumour to tissue ratio”: 17.3 (C57 mouse, female, B16/F1 melanoma; intravenous, 0.037 MBq, 24 h; relative to: tumour over blood).
Under “diastolic pressure decrease”, `CCCC[C@H](NC(=O)[C@H](CC(C)C)N(C)C(=O)CNC(=O)[C@@H](NC(=O)[C@H](Cc1ccccc1)NC(=O)[C@H](CCCCN)NC(=O)[C@@H](N)CC(=O)O)C(C)C)C(N)=O` is recorded as 30% (anaesthetized spinalized rat; IV, 100 µg/kg; relative to: baseline).
The Cmax ratio of `COc1ccnc(C[S+]([O-])c2nc3cc(-n4cccc4)ccc3[nH]2)c1C` (centres unmarked) is reported as 1.96 (male Sprague Dawley rats, plasma; oral, 1 mg/kg ilaprazole racemate; relative to: compound over R-ilaprazole).
With `NCCCC(=O)OCC(=O)c1cc(F)c(O)c(F)c1.O=C(O)C(F)(F)F` the quantum yield was less than 0.01 (photolysis, refers to: rearranged acid appearance; aqueous HEPES buffer with LiClO4; pH 8.2).
`O=c1c(Cc2ccccc2)nc2ccccc2n1Cc1cn(-c2ccc(S(=O)(=O)Nc3ncccn3)cc2)nn1` gave a safe concentration of 0.124 ± 0.007 µM (MTT; rat primary colonocytes, Albino rat, male; 72 h, concentration at 100% viability).

Some of these lines once more:
`O=c1c(Cc2ccccc2)nc2ccccc2n1Cc1cn(-c2ccc(S(=O)(=O)Nc3ncccn3)cc2)nn1` gave a safe concentration of 0.124 ± 0.007 µM (MTT; rat primary colonocytes, Albino rat, male; 72 h, concentration at 100% viability).
